Results pooled from the literature.
Numbers after ± are the reported error.

C[N+](C)(CCOCCOCCOCCOCCOCCOCCOCCNC(=S)Nc1ccc(CC2CN(CC(=O)[O-])CCN(CC(=O)[O-])CCN2CC(=O)[O-])cc1)C[c-]1cccc1.[64Cu+2].[Fe+2].c1cc[cH-]c1 (stereo not shown) — tumour uptake (pretargeted biodistribution; nude mouse, BxPC-3 xenograft; 24 h post-radioligand, 72 h lag time): 0.5 ± 0.4 %ID/g
CCCC[C@H](NC(=O)CNC(=O)CNC(=O)[C@H](CCCCNC(=O)[C@H](CC(=O)O)NC(=O)C(C)c1ccc(CC(C)C)cc1)NC(=O)CN1CCN(CC(=O)O)CCN(CC(=O)O)CCN(CC(=O)O)CC1)C(=O)N[C@H]1CC(=O)NCCCC[C@@H](C(N)=O)NC(=O)[C@H](Cc2c[nH]c3ccccc23)NC(=O)[C@H](CCCNC(=N)N)NC(=O)[C@@H](Cc2ccccc2)NC(=O)[C@H](Cc2c[nH]cn2)NC1=O (stereo partly shown) [lutetium-177 labelled] — tumour to tissue ratio (C57 mouse; intravenous, 2 h, added: NDP-MSH blockade; relative to: tumour over liver): 1.26
N=C(N)NCCC[C@@H]1NC(=O)[C@@H](NC(=O)CCCCCNC(=O)c2ccc3c(c2)C(=O)OC32c3ccc(O)cc3Oc3cc(O)ccc32)CSSC[C@@H](C(N)=O)NC(=O)[C@H](CC(=O)O)NC(=O)[C@@H]2CCCN2C(=O)CNC(=O)[C@H](CCCCN)NC(=O)[C@H](CC(=O)O)NC(=O)CNC1=O — tumour accumulation (ex vivo fluorescence, refers to: FAM-labelled peptide; mouse, Lovo-6-luc-1 peritoneal and subcutaneous tumours; intraperitoneal, 0.3 mg, 1 h; relative to: subcutaneous tumours): ~25%
O=C(CCc1cn(CCOCCOCCOCC[18F])nn1)Nc1ccc(-c2nnc(-c3ccccn3)nn2)nc1 — tumour to muscle ratio (BALB/c nude mouse, LS174T xenograft; intravenous, 1 h, added: CC49-TCO 72 h before): 2.3
Cc1n[nH]c(C)c1CCCOc1cc(C(=O)NCCCCC(NC(=O)CN2CCN(CC(=O)[O-])CCN(CC(=O)[O-])CCN(CC(=O)[O-])CC2)C(=O)NCC2CCC(C(=O)NC(Cc3ccc4ccccc4c3)C(=O)NCCCCC(NC(=O)NC(CCC(=O)O)C(=O)O)C(=O)O)CC2)ccc1F.[68Ga+3] (stereo not shown) — tumour uptake (ex vivo biodistribution; mouse 22Rv1 xenograft, tumour; 4 h post-injection): 6.08 ± 0.78 %ID/g
CCCC[C@H]1C(=O)N(C)[C@@H](CCCC)C(=O)N[C@@H](CCCCNC(=S)Nc2ccc(CN3CCN(CC(=O)O)CCN(CC(=O)O)CC3)cc2)C(=O)N[C@H](C(=O)NCC(N)=O)CSCC(=O)N[C@@H](Cc2ccc(O)cc2)C(=O)N(C)[C@@H](C)C(=O)N[C@@H](CC(N)=O)C(=O)N2CCC[C@H]2C(=O)N[C@@H](Cc2cnc[nH]2)C(=O)N[C@@H](CCC(=O)O)C(=O)N2C[C@H](O)C[C@H]2C(=O)N[C@@H](Cc2c[nH]c3ccccc23)C(=O)N[C@@H](CO)C(=O)N[C@@H](Cc2cn(CC(=O)O)c3ccccc23)C(=O)N1C [fluorine-18 labelled] — tumour uptake (H2444 subcutaneous xenograft, NSG mouse, tumour; intravenous, 60 min): 10.4 ± 2.63 %ID/g
O=C(CCc1cn([C@@H]2O[C@H](C[18F])[C@@H](O)[C@H](O)[C@H]2O)nn1)Nc1ccc(-c2nnc(-c3ccccn3)nn2)nc1 — tumour to muscle ratio (BALB/c nude mouse, LS174T xenograft; intravenous, 1 h, added: CC49-TCO 72 h before): 4.8
O=C([O-])CN1CCN(CC(=O)[O-])CCN(CC(=O)NCC2CCC(C(=O)NC(Cc3ccc4ccccc4c3)C(=O)NCCCCC(NC(=O)NC(CCC(=O)O)C(=O)O)C(=O)O)CC2)CCN(CC(=O)[O-])CC1.[68Ga+3] (stereo not shown) — tumour uptake (ex vivo biodistribution; mouse 22Rv1 xenograft, tumour; 4 h post-injection): 1 ± 0.53 %ID/g
C[N+](C)(CCOCCOCCOCCNC(=S)Nc1ccc(C[C@H]2CN(CC(=O)[O-])CCN(CC(=O)[O-])CCN2CC(=O)[O-])cc1)C[c-]1cccc1.[64Cu+2].[Fe+2].c1cc[cH-]c1 — tumour uptake (pretargeted PET; nude mouse, BxPC-3 xenograft; 8 h post-radioligand, 72 h lag time): 6.9 ± 2.4 %ID/mL
O[C@@H]1[C@@H](O)[C@H](n2cc(COc3ccc(-c4nncnn4)cc3)nn2)O[C@H](C[18F])[C@H]1O — tumour to blood ratio (PET imaging; BALB/c nude mouse, LS174T xenograft, tumour, heart as blood; intravenous, 1 h, added: CC49-TCO 72 h before; relative to: tumour over heart): 0.8

Excerpt of the above:
CCCC[C@H]1C(=O)N(C)[C@@H](CCCC)C(=O)N[C@@H](CCCCNC(=S)Nc2ccc(CN3CCN(CC(=O)O)CCN(CC(=O)O)CC3)cc2)C(=O)N[C@H](C(=O)NCC(N)=O)CSCC(=O)N[C@@H](Cc2ccc(O)cc2)C(=O)N(C)[C@@H](C)C(=O)N[C@@H](CC(N)=O)C(=O)N2CCC[C@H]2C(=O)N[C@@H](Cc2cnc[nH]2)C(=O)N[C@@H](CCC(=O)O)C(=O)N2C[C@H](O)C[C@H]2C(=O)N[C@@H](Cc2c[nH]c3ccccc23)C(=O)N[C@@H](CO)C(=O)N[C@@H](Cc2cn(CC(=O)O)c3ccccc23)C(=O)N1C [fluorine-18 labelled] — tumour uptake (H2444 subcutaneous xenograft, NSG mouse, tumour; intravenous, 60 min): 10.4 ± 2.63 %ID/g
